Measured values from different studies.
Protocols differ between the studies behind these lines. ± marks the error that the study gave.
GLP1R: Glucagon-like peptide 1 receptor (GLP1R, Homo sapiens, UniProt P43220)
Chain of UniProt P16152 (whole entry, looked up): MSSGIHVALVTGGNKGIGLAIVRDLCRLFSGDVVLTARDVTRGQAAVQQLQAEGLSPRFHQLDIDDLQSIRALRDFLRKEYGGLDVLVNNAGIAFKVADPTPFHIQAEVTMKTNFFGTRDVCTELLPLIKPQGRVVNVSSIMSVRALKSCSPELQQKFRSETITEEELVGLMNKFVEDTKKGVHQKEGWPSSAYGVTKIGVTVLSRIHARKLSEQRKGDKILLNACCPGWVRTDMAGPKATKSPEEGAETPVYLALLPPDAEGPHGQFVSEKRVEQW
Chain of UniProt O43603 (whole entry, looked up): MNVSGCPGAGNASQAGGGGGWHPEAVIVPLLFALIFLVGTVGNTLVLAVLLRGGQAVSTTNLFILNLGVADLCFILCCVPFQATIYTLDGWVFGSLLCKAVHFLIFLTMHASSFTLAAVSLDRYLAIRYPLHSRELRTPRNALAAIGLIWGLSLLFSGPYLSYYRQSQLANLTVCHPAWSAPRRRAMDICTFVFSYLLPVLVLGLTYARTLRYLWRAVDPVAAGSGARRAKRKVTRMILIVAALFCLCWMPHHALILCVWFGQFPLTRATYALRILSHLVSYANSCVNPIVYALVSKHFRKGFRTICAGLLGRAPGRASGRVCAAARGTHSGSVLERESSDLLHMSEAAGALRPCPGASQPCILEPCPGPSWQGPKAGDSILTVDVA
Chain of UniProt P08183 (whole entry, looked up): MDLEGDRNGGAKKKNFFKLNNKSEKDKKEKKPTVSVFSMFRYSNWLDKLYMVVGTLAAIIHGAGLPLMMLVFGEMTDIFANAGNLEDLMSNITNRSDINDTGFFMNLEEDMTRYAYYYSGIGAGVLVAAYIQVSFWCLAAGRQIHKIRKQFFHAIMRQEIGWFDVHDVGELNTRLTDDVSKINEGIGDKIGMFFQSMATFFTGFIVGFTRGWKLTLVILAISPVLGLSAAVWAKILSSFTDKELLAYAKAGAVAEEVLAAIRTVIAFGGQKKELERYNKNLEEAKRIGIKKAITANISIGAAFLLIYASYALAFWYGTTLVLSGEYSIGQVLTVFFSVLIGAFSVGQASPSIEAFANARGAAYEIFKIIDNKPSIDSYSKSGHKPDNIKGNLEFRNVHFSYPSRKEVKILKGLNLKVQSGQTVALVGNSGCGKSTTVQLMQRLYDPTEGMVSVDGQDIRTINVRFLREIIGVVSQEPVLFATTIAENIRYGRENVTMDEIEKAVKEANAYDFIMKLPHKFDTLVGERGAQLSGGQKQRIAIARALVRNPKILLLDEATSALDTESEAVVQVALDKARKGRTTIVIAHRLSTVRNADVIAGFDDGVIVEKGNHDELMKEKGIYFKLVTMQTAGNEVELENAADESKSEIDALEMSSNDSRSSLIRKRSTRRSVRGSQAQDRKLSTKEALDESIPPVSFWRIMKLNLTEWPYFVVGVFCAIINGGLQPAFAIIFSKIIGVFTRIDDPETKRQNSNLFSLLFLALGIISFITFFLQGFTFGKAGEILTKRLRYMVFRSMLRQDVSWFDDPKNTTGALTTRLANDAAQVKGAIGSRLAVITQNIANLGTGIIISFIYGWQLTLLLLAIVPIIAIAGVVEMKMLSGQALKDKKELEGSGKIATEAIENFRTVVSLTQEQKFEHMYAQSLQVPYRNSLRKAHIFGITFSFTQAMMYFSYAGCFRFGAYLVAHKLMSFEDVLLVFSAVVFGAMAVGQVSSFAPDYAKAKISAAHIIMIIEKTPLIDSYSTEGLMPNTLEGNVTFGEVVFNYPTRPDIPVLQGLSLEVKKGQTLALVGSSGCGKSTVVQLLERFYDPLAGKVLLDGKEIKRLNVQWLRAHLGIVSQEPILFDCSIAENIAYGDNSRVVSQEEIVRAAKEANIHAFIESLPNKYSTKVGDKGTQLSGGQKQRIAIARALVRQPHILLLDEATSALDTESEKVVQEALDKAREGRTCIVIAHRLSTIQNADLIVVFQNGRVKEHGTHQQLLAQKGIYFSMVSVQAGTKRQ
Chain of UniProt P48146 (whole entry, looked up): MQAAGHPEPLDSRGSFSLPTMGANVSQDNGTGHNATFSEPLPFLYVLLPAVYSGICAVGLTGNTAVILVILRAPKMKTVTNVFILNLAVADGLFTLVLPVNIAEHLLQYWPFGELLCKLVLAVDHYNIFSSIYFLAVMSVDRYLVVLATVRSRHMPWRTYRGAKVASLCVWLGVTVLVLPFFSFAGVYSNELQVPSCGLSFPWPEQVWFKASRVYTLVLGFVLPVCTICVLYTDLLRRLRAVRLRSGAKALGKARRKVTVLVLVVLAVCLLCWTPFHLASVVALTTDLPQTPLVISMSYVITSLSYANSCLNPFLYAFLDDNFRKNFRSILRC

| Compound | tested on | test | system | setting | how to read | quantity | value |
| --- | --- | --- | --- | --- | --- | --- | --- |
| CC[C@H](C)[C@H](NC(=O)[C@H](Cc1ccccc1)NC(=O)[C@H](CCC(=O)O)NC(=O)[C@H](CCCNC(=N)N)NC(=O)[C@H](C)NC(=O)[C@H](C)NC(=O)[C@H](CCC(N)=O)NC(=O)[C@H](CCCCNc1c(NCCCCCN(O)C(=O)CCC(=O)NCCCCCN(O)C(=O)CCC(=O)NCCCCCN(O)C(C)=O)c(=O)c1=O)NC(=O)[C@H](CCC(=O)O)NC(=O)[C@H](CC(C)C)NC(=O)[C@H](Cc1ccc(O)cc1)NC(=O)[C@H](CO)NC(=O)[C@H](CO)NC(=O)[C@H](CCCCNc1c(NCCCCCN(O)C(=O)CCC(=O)NCCCCCN(O)C(=O)CCC(=O)NCCCCCN(O)C(C)=O)c(=O)c1=O)NC(=O)[C@H](CC(=O)O)NC(=O)[C@H](CO)NC(=O)[C@@H](NC(=O)[C@H](Cc1ccccc1)NC(=O)[C@@H](NC(=O)CNC(=O)[C@H](CCC(=O)O)NC(=O)[C@H](C)NC(=O)CCc1cnc[nH]1)[C@@H](C)O)[C@@H](C)O)C(=O)N[C@@H](C)C(=O)N[C@@H](Cc1c[nH]c2ccccc12)C(=O)N[C@@H](CC(C)C)C(=O)N[C@H](C(=O)N[C@@H](CCCNC(=N)N)C(=O)NCC(=O)N[C@@H](CCCNC(=N)N)C(=O)N[C@@H](CCCCNC(=O)COCCOCCNC(=O)COCCOCCNC(=O)CC[C@H](NC(=O)CCCCCCCCCCCCCCCCC(=O)O)C(=O)O)C(=O)O)C(C)C | GLP1R | cAMP reporter gene, agonist, CRE luciferase | BHK | without Zr, 1% HSA | – | EC50 | 1.2 nM |
| CN1CC[C@@H](c2c(O)cc(O)c3c(=O)cc(-c4ccc(C(F)(F)F)cc4Cl)oc23)[C@@H]1CO | – | item: Fatigue | AML | oral, 100 mg, intermittent dosing | – | patients with adverse event | 33.3% |
| O=c1ccc2ccccc2o1 | HepG2 | cell count | – | concentration not given, 1 h, high-content imaging | – | response probability | 0.05% |
| COc1cccc(-c2n[nH]c(SCc3ccccn3)n2)c1OC | Salmonella typhimurium | Ames test, plate incorporation | TA100 | 0.13 mg/plate, with rat liver S9 | – | revertant colonies per plate | 107 |
| CC(C)CC(=O)OC[C@H]1O[C@@](C#N)(c2ccc3c(N)ncnn23)[C@H](O)[C@@H]1O | ABCB1 (Homo sapiens, UniProt P08183) | apical to basolateral transport | Caco-2 | 0.9 µM, 2 h, together with: verapamil 100 µM | – | recovery | 58.1% |
| Cc1onc(-c2c(F)cccc2Cl)c1C(=O)N[C@@H]1C(=O)N2[C@@H]1SC(C)(C)[C@@H]2C(=O)O | – | – | human whole blood | concentration not given, 24 h, 4 °C | – | deviation from nominal concentration | -3.6% |
| CC[C@H](C)[C@H](NC(=O)[C@H](Cc1ccccc1)NC(=O)[C@H](CCC(=O)O)NC(=O)[C@H](CCCNC(=N)N)NC(=O)[C@H](C)NC(=O)[C@H](C)NC(=O)[C@H](CCC(N)=O)NC(=O)[C@H](CCCCNc1c(NCCCCCN(O)C(=O)CCC(=O)NCCCCCN(O)C(=O)CCC(=O)NCCCCCN(O)C(C)=O)c(=O)c1=O)NC(=O)[C@H](CCC(=O)O)NC(=O)[C@H](CC(C)C)NC(=O)[C@H](Cc1ccc(O)cc1)NC(=O)[C@H](CO)NC(=O)[C@H](CO)NC(=O)[C@@H](NC(=O)[C@H](CC(=O)O)NC(=O)[C@H](CO)NC(=O)[C@@H](NC(=O)[C@H](Cc1ccccc1)NC(=O)[C@@H](NC(=O)CNC(=O)[C@H](CCC(=O)O)NC(=O)[C@H](C)NC(=O)CCc1cnc[nH]1)[C@@H](C)O)[C@@H](C)O)C(C)C)C(=O)N[C@@H](C)C(=O)N[C@@H](Cc1c[nH]c2ccccc12)C(=O)N[C@@H](CC(C)C)C(=O)N[C@H](C(=O)N[C@@H](CCCCNc1c(NCCCCCN(O)C(=O)CCC(=O)NCCCCCN(O)C(=O)CCC(=O)NCCCCCN(O)C(C)=O)c(=O)c1=O)C(=O)NCC(=O)N[C@@H](CCCNC(=N)N)C(=O)N[C@@H](CCCCNC(=O)COCCOCCNC(=O)COCCOCCNC(=O)CC[C@H](NC(=O)CCCCCCCCCCCCCCCCC(=O)O)C(=O)O)C(=O)O)C(C)C | GLP1R | cAMP reporter gene, agonist, CRE luciferase | BHK | with Zr, 0% HSA | – | EC50 | 0.011 nM |
| CO[C@H]1C[C@@H]2CC[C@@H](C)[C@@](O)(O2)C(=O)C(=O)N2CCCC[C@H]2C(=O)O[C@H]([C@H](C)C[C@@H]2CC[C@@H](OC(=O)NCCOCCOCCOCCOCCOCCOCCOCCOCCC(=O)N3CCc4cc(Cn5nc(-c6ccc7oc(N)nc7c6)c6c(N)ncnc65)ccc4C3)[C@H](OC)C2)C[C@@H](O)[C@H](C)/C=C(\C)[C@@H](O)[C@@H](OC)C(=O)[C@H](C)C[C@H](C)/C=C/C=C/C=C/1C | – | – | patients with advanced solid tumours | intravenous, dose not given, any grade | – | incidence of mucositis TRAE | 49% |
| CC[C@@H](C)[C@@H](NC(=O)[C@@H](CC(C)C)NC(=O)[C@H](NC(=O)[C@H](NC(=O)[C@H](NC(=O)[C@@H](CCCNC(=N)N)NC(=O)[C@@H](CCCNC(=N)N)NC(=O)[C@@H](CCCNC(=N)N)NC(=O)[C@H](N)CCCNC(=N)N)C(C)C)[C@H](C)CC)[C@H](C)CC)C(=O)N[C@@H](C(=O)N[C@H](CC(C)C)C(=O)N[C@H](CCCNC(=N)N)C(=O)N[C@H](CCCNC(=N)N)C(=O)N[C@H](CCCNC(=N)N)C(=O)N[C@H](CCCNC(=N)N)C(=O)N[C@H](Cc1ccccc1)C(=O)N[C@H](CO)C(=O)N[C@H](C)C(=O)N[C@H](Cc1ccc(O)cc1)C(N)=O)C(C)C | human erythrocytes | – | – | 400 µM, 1 h | relative to: Triton X-100 | hemolysis | 47% |
| C[C@H]1CN(c2n[nH]c3nc(N[C@H]4CC[C@H](NS(=O)(=O)CCC(F)(F)F)CC4)ncc23)CCO1 | CBR1 (Homo sapiens, UniProt P16152) | inhibitor, Kinobeads competition profiling | – | 20 µM | relative to: vehicle | relative abundance | 1.14 |
| O=S(=O)(Nc1ccccc1)c1ccc(NC(=S)Nc2ccccc2)cc1 | – | item: Glu | male mouse, blood | oral, 20 mg/kg daily, 14 days | – | blood chemistry level | 222 mg/dL |
| COc1cc2c(Oc3ccc4[nH]c(C)cc4c3F)ccnc2cc1OCC1(N)CC1 | – | – | paediatric recurrent refractory sarcoma | 10 mg | – | grade 3 abdominal pain | 0% |
| [Cl-].[Cl-].[Pt+2].[Ru+2].c1ccc(-c2nc3ccccc3nc2-c2ccccn2)nc1.c1cnc2c(c1)ccc1cccnc12.c1cnc2c(c1)ccc1cccnc12 | Danio rerio | – | embryos | 75 µM, 72 h | – | hatching rate | 6.67 ± 3.9% |
| COc1cc(Nc2ncc(F)c(Nc3ccc4c(n3)NC(=O)C(C)(C)O4)n2)cc(OC)c1OC | GALR2 (Homo sapiens, UniProt O43603) | – | – | – | – | IC50 | > 10000 nM |
| Oc1ccc2c3c1O[C@H]1[C@@H](O)CC[C@@]4(O)[C@@H](C2)N(CC2CCC2)CC[C@]314 | NPBWR2 (Homo sapiens, UniProt P48146) | receptor activation, TANGO luminescence | – | concentration not given, unconfirmed screen | relative to: vehicle control | log2 fold change | 0.2 |

For quick reference, copied from above:
| Compound | tested on | test | system | setting | how to read | quantity | value |
| --- | --- | --- | --- | --- | --- | --- | --- |
| COc1cccc(-c2n[nH]c(SCc3ccccn3)n2)c1OC | Salmonella typhimurium | Ames test, plate incorporation | TA100 | 0.13 mg/plate, with rat liver S9 | – | revertant colonies per plate | 107 |
| CC(C)CC(=O)OC[C@H]1O[C@@](C#N)(c2ccc3c(N)ncnn23)[C@H](O)[C@@H]1O | ABCB1 (Homo sapiens, UniProt P08183) | apical to basolateral transport | Caco-2 | 0.9 µM, 2 h, together with: verapamil 100 µM | – | recovery | 58.1% |
